# Experimental data collected from several papers.
# Several values in a cell are separate wells, animals, samples, runs or records. ± gives the spread as reported.
# U2AF2: U2AF2 148-342 (Homo sapiens, UniProt P26368)
# UniProt P26368, sequence (whole entry, looked up): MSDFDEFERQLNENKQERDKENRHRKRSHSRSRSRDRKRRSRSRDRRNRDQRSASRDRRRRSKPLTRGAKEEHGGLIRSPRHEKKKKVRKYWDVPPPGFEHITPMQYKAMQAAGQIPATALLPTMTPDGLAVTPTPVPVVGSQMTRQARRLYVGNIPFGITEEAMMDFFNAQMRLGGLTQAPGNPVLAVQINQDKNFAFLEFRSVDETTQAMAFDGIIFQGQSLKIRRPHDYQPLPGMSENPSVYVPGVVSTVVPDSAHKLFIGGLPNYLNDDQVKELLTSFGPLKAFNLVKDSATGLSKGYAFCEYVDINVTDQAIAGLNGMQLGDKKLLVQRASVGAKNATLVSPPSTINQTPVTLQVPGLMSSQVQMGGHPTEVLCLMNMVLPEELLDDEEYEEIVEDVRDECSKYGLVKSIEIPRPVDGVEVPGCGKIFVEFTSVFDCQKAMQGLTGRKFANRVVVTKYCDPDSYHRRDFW
# B1: enzyme (Methylibium petroleiphilum, UniProt A2SL37); chain PIIQMNLLEGRTVEQKRNAVAAITEAVVRTLDVRPDQVRILINELGVEHFSVAGQTAAMRQAAAANAKDL
# B2: enzyme (Lacticaseibacillus rhamnosus, UniProt A0A7S7JIA0); chain MSEPLPRIKRYEDLGLGLFIHWGLYSQLAVGEWTEFIHHRSRSEYEKLIATFTANQFDAEAIAHAAKMMGAKYIVLTTKHHEGFFLYDTKGLSSFDVMHSPANRDLIAEFVAACRKEGLLPFFYVATYDWHSPLYEENFPAYLDYLKASVEVLCRHYGPVGGFWFDGNWNKKEADWQLPALYGMIRKYQPDAIIVNNTGLKNRGKVSDPEIDVVTYERRTPDEIYHGAPNAKYVAGEISMTLNQHWGIATNDLNYKSPAEVIETVAHARHIGANILVNIGLTGQGAIPASAKTYMALLGRWTTMAAPALYRGRPTAIVSGQGARDFVLHADAHDYLCVFDLKVVGNDNVVLGGEGVNPRSFVGIDRPIESVYWLDNEEYLSFTQDLHKRVLTVDATGYPYGSDWVVRIAQIDYKSENRTVKSD
# B3: human RAB13; sequence looked up; chain MAKAYDHLFKLLLIGDSGVGKTCLIIRFAEDNFNNTYISTIGIDFKIRTVDIEGKKIKLQVWDTAGQERFKTITTAYYRGAMGIILVYDITDEKSFENIQNWMKSIKENASAGVERLLLGNKCDMEAKRKVQKEQADKLAREHGIRFFETSAKSSMNVDEAFSSLARDILLKSGGRRSGNGNKPPSTDLKTCDKKNTNKC
# B4: enzyme H130Y (Salinispora arenicola, UniProt A8M783); chain MASTPWISFTTDYGLADGFVAACHGVLARLAPTARVIDVTHLVPPGDVRRGAAVLAQTVPYLPAAVHVAVVDPGVGTARRAIALTAGNGLLVGPDNGLLLDAATALGGVDAAVELTNPDWLGARMSATFYGRDVFAPVAARLALGAPLADAGPAVEPGALVRLPTPLVQPETDGFTAEVLTVDHFGNVQLAATGALLESLPRSLRVAHRPAVHARTFDDAPPGGLLVHVDSAGLVAVAVNGGRAADLLAVTPGDQLRVTAG
# B5: mtnA (Bacillus subtilis, UniProt O31662); chain MTHSFAVPRSVEWKETAITILNQQKLPDETEYLELTTKEDVFDAIVTLKVRGAPAIGITAAFGLALAAKDIETDNVTEFRRRLEDIKQYLNSSRPTAINLSWALERLSHSVENAISVNEAKTNLVHEAIQIQVEDEETCRLIGQNALQLFKKGDRIMTICNAGSIATSRYGTALAPFYLAKQKDLGLHIYACETRPVLQGSRLTAWELMQGGIDVTLITDSMAAHTMKEKQISAVIVGADRIAKNGDTANKIGTYGLAILANAFDIPFFVAAPLSTFDTKVKCGADIPIEERDPEEVRQISGVRTAPSNVPVFNPAFDITPHDLISGIITEKGIMTGNYEEEIEQLFKGEKVH
# B6: enzyme (UniProt P0DY30); chain ESPWIGVHFMVYTDKMLDQLAEQLPALSKRGVTHLILEINYHFAYKSHPELAPTNGITVVGAKKFADTARAHHIEIIPQINCLGHQSWKQNNAALLKHYPQFDETPGAYPDNKDIYCRSWCPQHPEVNRVVFALIDELIDAFEAKAFHVGMDEVFLIASEHCERCRGGDPAALFAKAVNDLHGHIVGKRGVQMLMWGDRLLDAEQTGYGKWEASGNGTAPAIDRIPKDIVLCDWHYEKRDRYPSLAVFLDKGFRVWPAGWKKPEAAEAFAAAARGCQNPRLLGYLCTTWGAVEIPNLADWPALLRPIEKIIAP
# B7: enzyme (Methanosarcina mazei, UniProt Q8PVB1); chain MSEQRSVPLREHLLALKPCRHGGLIQETSETYGIPENEILDFSANFNPLGSPFDYPENGLNFEDIIKKSCGKLLEYPDNRYVEFREAAARFVGLGVTPQSIVPGNGSTEIVRLVVESVIEKGDKVLLPWPTFGEYEMQCRITGAEPVCPSQEEVNTLPDEVLEEAKILFICNPNNPTGKLRTREELKVLAERCREHKTLLYVDEAFIELSDPSQSVADLPAENNYVFVMRSLTKDFAIPGIRMGFGIAPPAMADILNTARLSWNLGAIANNTGIALLNIEGGIDSPYLKKAREMILKEGETLKAKIDRIRGFEAGEVNVNFILVDVSKFMLNSSELTARLAARGVLVRDCVSFHGLGKNYIRVAVRTEKENDRLIAAIGDVITEWGREQAKNELQHVIEKASEEGIGGRKTCEYYPCHFEGQNCTFCFCPFYPCENEKTGGKWIQSSRGGRVWSCVDCHLVHKKEIAQKILDCLMHEGDTDELVKVAWKEVMEPIL
# B8: enzyme (Homo sapiens, UniProt P50583); chain ALRACGLIIFRRCLIPKVDNNAIEFLLLQASDGIHHWTPPKGHVEPGEDDLETALRETQEEAGIEAGQLTIIEGFKRELNYVARNKPKTVIYWLAEVKDYDVEIRLSHEHQAYRWLGLEEACQLAQFKEMKAALQEGHQFLCSIEA
# B9: enzyme (Arabidopsis thaliana, UniProt Q9C969); chain GSFGMLSRRTLGTDMPVMAQIRSLMAELTNPMSLAQGVVHWQPPQKALEKVKELVWDPIISSYGPDEGLPELRQALLKKLREENKLTNSQVMVTAGANQAFVNLVITLCDAGDSVVMFEPYYFNSYMAFQMTGVTNIIVGPGQSDTLYPDADWLERTLSESKPTPKVVTVVNPGNPSGTYVPEPLLKRIAQICKDAGCWLIVDNTYEYFMYDGLKHCCVEGDHIVNVFSFSKTYGMMGWRLGYIAYSERLDGFATELVKIQDNIPICAAIISQRLAVYALEEGSGWITERVKSLVKNRDIVKEALEPLGKENVKGGEGAIYLWAKLPEGHRDDFKVVRWLAHRHGVVVIPGCASGSPGYLRVSFGGLQEVEMRAAAARLRKGIEELLHHGMVE
# UniProt P13393, sequence (whole entry, looked up): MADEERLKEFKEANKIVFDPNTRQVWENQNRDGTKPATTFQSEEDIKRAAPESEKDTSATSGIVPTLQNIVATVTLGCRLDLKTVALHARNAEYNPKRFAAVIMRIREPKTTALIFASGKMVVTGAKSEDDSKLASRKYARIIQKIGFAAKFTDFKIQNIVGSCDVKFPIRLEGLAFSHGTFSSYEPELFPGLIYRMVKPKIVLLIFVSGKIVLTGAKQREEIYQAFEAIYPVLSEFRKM
# UniProt P09546, sequence (whole entry, looked up): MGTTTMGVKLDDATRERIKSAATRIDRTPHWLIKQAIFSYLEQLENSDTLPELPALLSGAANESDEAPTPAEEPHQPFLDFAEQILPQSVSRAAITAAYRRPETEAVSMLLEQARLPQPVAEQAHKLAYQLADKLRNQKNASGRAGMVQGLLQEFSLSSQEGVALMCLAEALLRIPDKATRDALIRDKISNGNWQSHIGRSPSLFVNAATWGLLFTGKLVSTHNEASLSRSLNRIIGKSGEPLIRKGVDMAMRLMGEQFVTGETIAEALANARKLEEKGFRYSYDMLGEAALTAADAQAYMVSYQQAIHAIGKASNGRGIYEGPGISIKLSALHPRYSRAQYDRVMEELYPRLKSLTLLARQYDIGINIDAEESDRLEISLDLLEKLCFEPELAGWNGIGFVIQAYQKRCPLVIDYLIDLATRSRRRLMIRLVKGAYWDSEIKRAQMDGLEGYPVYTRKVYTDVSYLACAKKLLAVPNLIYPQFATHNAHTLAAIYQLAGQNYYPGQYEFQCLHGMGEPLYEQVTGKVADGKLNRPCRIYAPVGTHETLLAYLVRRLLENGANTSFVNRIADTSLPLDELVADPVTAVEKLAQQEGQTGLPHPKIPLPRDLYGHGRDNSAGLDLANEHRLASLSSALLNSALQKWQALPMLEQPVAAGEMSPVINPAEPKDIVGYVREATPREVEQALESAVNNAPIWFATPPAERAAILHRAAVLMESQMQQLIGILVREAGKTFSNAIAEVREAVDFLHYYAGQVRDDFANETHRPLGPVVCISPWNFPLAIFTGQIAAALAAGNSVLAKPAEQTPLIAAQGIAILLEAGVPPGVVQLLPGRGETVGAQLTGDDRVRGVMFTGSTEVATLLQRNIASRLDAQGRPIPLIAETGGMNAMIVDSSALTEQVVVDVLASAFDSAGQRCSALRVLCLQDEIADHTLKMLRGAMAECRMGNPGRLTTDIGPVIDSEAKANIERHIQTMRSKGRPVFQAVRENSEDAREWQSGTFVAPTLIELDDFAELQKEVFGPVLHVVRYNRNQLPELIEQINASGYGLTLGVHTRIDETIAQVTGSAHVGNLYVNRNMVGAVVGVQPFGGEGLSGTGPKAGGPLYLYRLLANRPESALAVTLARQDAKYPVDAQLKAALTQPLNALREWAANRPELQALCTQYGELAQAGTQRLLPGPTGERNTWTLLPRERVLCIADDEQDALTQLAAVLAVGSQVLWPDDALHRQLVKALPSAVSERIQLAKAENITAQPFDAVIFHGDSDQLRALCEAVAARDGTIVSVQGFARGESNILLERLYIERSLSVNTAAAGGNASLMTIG
# UniProt P07004, sequence (whole entry, looked up): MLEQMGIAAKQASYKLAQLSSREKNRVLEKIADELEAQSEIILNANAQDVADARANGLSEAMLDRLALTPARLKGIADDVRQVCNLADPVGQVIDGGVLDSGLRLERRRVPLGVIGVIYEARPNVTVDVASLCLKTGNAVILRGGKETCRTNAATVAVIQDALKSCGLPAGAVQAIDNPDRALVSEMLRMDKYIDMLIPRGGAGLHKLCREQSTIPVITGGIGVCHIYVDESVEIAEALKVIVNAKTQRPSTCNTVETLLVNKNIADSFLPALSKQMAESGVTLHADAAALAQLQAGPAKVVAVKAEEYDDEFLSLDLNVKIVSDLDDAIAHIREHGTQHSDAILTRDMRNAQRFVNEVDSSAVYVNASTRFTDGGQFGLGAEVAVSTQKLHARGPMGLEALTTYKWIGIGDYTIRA
# UniProt P78804, sequence (whole entry, looked up): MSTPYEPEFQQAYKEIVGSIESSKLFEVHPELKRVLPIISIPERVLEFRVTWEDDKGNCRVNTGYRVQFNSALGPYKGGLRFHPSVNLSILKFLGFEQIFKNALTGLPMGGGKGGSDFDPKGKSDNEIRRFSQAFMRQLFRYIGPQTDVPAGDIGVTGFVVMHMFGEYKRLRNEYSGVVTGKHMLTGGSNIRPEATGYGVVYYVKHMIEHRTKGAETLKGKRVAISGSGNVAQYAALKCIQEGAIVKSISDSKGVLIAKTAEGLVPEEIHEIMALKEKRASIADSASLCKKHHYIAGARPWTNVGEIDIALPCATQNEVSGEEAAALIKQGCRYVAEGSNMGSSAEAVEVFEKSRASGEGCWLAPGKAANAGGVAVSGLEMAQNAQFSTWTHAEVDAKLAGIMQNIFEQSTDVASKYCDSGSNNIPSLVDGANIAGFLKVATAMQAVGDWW
# UniProt P26208, sequence (whole entry, looked up): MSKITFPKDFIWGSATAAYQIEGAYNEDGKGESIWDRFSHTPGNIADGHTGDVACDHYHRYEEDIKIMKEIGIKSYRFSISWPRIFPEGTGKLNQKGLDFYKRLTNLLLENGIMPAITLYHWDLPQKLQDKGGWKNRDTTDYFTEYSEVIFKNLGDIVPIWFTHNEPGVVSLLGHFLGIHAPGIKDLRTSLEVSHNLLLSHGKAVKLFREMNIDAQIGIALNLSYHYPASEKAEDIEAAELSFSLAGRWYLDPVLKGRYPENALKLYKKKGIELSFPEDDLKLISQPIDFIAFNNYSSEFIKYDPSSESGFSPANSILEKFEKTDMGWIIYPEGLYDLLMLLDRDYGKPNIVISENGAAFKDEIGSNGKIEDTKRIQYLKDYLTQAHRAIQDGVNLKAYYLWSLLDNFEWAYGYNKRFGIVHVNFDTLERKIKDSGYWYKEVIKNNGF
# UniProt Q96C36, sequence (whole entry, unmodified, looked up): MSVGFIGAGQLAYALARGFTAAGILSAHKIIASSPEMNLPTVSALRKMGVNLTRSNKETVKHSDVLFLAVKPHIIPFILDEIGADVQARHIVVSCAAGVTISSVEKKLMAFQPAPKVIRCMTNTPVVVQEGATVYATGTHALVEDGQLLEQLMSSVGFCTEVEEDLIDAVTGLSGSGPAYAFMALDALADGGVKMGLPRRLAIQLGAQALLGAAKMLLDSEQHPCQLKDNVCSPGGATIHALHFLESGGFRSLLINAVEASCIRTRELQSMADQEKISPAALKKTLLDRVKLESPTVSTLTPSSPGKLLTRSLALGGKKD
Substance,target or system,test,test system,conditions,scale,endpoint,result
TCCTGAAGGGACGCCTATAAAAGGTCCTATCGTCGTCAAGTCAATCGGTCC (dsDNA; 5'-amino-C6 primer),"SPT15 full length assumed (Saccharomyces cerevisiae, UniProt P13393)",array,"double-stranded DNA, one strand shown",TBP alone,,Kd,0.00494 ± 0.00078 µM
B1 (enzyme),C/C(=C\C=C(/O)C(=O)O)C(=O)O,steady-state kinetics,,"pH 7.3, 24 °C",,kcat/Km,16000 M⁻¹ s⁻¹
human alpha-actinin-2,CYB5R4 knockout human cells,"PP4 interaction, 3xFLAG-PP4C IP-MS",,concentration not given,reference: CYB5R4 KO over parental,log2 fold change,0.77
"enzyme (Pseudanabaena biceps, UniProt L8N0N6)",NC(=O)c1ccc[n+]([C@@H]2O[C@H](COP(=O)(O)O)[C@@H](O)[C@H]2O)c1,steady-state kinetics,,"pH 7.4, 30 °C, apparent, cofactor varied",,kcat/Km,290 ± 10 M⁻¹ s⁻¹
B2 (enzyme),C[C@@H]1O[C@@H](Oc2ccc([N+](=O)[O-])cc2)[C@@H](O)[C@H](O)[C@@H]1O,steady-state kinetics,,"pH 5, 40 °C",,kcat/Km,14700 M⁻¹ s⁻¹
"enzyme M50A (Homo sapiens, UniProt Q08623)",O=c1[nH]cc([C@@H]2O[C@H](COP(=O)(O)O)[C@@H](O)[C@H]2O)c(=O)[nH]1,steady-state kinetics,,"pH 7, 25 °C",,kcat/Km,8330 M⁻¹ s⁻¹
"enzyme (Saccharina japonica, UniProt A0A097IUE3)",C=C(OP(=O)(O)O)C(=O)O,steady-state kinetics,,"pH 6.5, 25 °C, added: 2 mM ADP",,kcat/Km,21000 M⁻¹ s⁻¹
B3 (human RAB13),CYB5R4 knockout human cells,"PP6 interaction, 3xFLAG-PP6C IP-MS",,concentration not given,reference: CYB5R4 KO over parental,log2 fold change,-0.11
CUUCCCUUU (ssRNA),U2AF2,sequencing of bound RNA,RNA,motif only,,Kd,2.42 µM
"PYCR2 (Homo sapiens, UniProt Q96C36)",NC(=O)C1=CN([C@@H]2O[C@H](COP(=O)(O)OP(=O)(O)OC[C@H]3O[C@@H](n4cnc5c(N)ncnc54)[C@H](OP(=O)(O)O)[C@@H]3O)[C@@H](O)[C@H]2O)C=CC1,steady-state kinetics,,"pH 7.5, 37 °C, apparent, cofactor varied, added: DL-P5C 5000 µM",,kcat/Km,111000 ± 9000 M⁻¹ s⁻¹
B4 (enzyme H130Y),C[S+](CC[C@H](N)C(=O)O)C[C@H]1O[C@@H](n2cnc3c(N)ncnc32)[C@H](O)[C@@H]1O,steady-state kinetics,,"pH 7.9, 37 °C, apparent, added: 1-200 µM SAM",,kcat/Km,383 M⁻¹ s⁻¹
B5 (mtnA),O=P(O)(O)O[C@H]1O[C@H](CO)[C@@H](O)[C@H]1O,steady-state kinetics,,"pH 7.5, 25 °C",,kcat/Km,9.27 M⁻¹ s⁻¹
"proA (Escherichia coli, UniProt P07004)",N[C@@H](CCC=O)C(=O)O,steady-state kinetics,,"pH 7.6, apparent, added: 1 mM NADP+",,kcat/Km,53000 ± 12000 M⁻¹ s⁻¹
B6 (enzyme),CC(=O)N[C@H]1[C@H](Oc2ccc([N+](=O)[O-])cc2)O[C@H](CO)[C@@H](O[C@@H]2O[C@H](CO)[C@H](O)[C@H](O)[C@H]2O)[C@@H]1O,steady-state kinetics,,"pH 6, 50 °C",,kcat/Km,4990 M⁻¹ s⁻¹
acsA D449E (Pseudomonas chlororaphis),C#CCCC(=O)O,steady-state kinetics,,pH 7,,kcat/Km,183 ± 33.3 M⁻¹ s⁻¹
GUUUUUUUU (ssRNA),U2AF2,sequencing of bound RNA,RNA,motif only,,Kd,1.33 µM
"enzyme (Acinetobacter baumannii, UniProt A0A5P1UDB1)",O=C(O)c1cccc(O)c1O,steady-state kinetics,,"pH 7.5, 37 °C, apparent",,kcat/Km,946 M⁻¹ s⁻¹
B7 (enzyme),Nc1ncnc2c1ncn2[C@@H]1O[C@H](COP(=O)(O)OP(=O)(O)OP(=O)(O)O)[C@@H](O)[C@H]1O,steady-state kinetics,,"pH 8.5, 25 °C, apparent, anoxic, added: L-Thr 10 mM",,kcat/Km,410 ± 150 M⁻¹ s⁻¹
"bglA (Acetivibrio thermocellus, UniProt P26208)",O=[N+]([O-])c1ccc(O[C@@H]2OC[C@H](O)[C@H](O)[C@H]2O)cc1,steady-state kinetics,,"pH 5.5, 60 °C",,kcat/Km,3330 ± 240 M⁻¹ s⁻¹
gdh N192L/N97F (Bacillus subtilis),NC(=O)c1ccc[n+]([C@@H]2O[C@H](COP(=O)(O)OP(=O)(O)OC[C@H]3O[C@@H](n4cnc5c(N)ncnc54)[C@H](O)[C@@H]3O)[C@@H](O)[C@H]2O)c1,steady-state kinetics,,"pH 7, 50 °C",,kcat/Km,63200 ± 4500 M⁻¹ s⁻¹
"enzyme (Schizosaccharomyces pombe, UniProt P78804)",NC(=O)C1=CN([C@@H]2O[C@H](COP(=O)(O)OP(=O)(O)OC[C@H]3O[C@@H](n4cnc5c(N)ncnc54)[C@H](O)[C@@H]3O)[C@@H](O)[C@H]2O)C=CC1,steady-state kinetics,,"pH 7, 30 °C, apparent",,kcat/Km,2500 ± 100 M⁻¹ s⁻¹
B8 (enzyme),Nc1ncnc2c1ncn2[C@@H]1O[C@H](COP(=O)(O)OP(=O)(O)OP(=O)(O)OP(=O)(O)OP(=O)(O)OC[C@H]2O[C@@H](n3cnc4c(N)ncnc43)[C@H](O)[C@@H]2O)[C@@H](O)[C@H]1O,steady-state kinetics,,added: Mg2+,,kcat/Km,14000 M⁻¹ s⁻¹
HNL E79H/H103V/K236M/T11G (Hevea brasiliensis),CC(=O)Oc1ccc([N+](=O)[O-])cc1,steady-state kinetics,,"pH 7.2, 22 °C",,kcat/Km,8.17 M⁻¹ s⁻¹
B9 (enzyme),O=C(O)C(=O)Cc1ccc(O)c(C(=O)O)c1,steady-state kinetics,,,,kcat/Km,139000 M⁻¹ s⁻¹ and 106000 M⁻¹ s⁻¹ and 141000 M⁻¹ s⁻¹
"putA (Escherichia coli, UniProt P09546)",COC1=C(OC)C(=O)C(C/C=C(\C)CCC=C(C)C)=C(C)C1=O,steady-state kinetics,,"pH 7.4, 20 °C, added: proline 200 mM",,kcat/Km,87000 ± 23000 M⁻¹ s⁻¹

# A few entries again:
Substance,target or system,test,test system,conditions,scale,endpoint,result
B6 (enzyme),CC(=O)N[C@H]1[C@H](Oc2ccc([N+](=O)[O-])cc2)O[C@H](CO)[C@@H](O[C@@H]2O[C@H](CO)[C@H](O)[C@H](O)[C@H]2O)[C@@H]1O,steady-state kinetics,,"pH 6, 50 °C",,kcat/Km,4990 M⁻¹ s⁻¹
GUUUUUUUU (ssRNA),U2AF2,sequencing of bound RNA,RNA,motif only,,Kd,1.33 µM
B7 (enzyme),Nc1ncnc2c1ncn2[C@@H]1O[C@H](COP(=O)(O)OP(=O)(O)OP(=O)(O)O)[C@@H](O)[C@H]1O,steady-state kinetics,,"pH 8.5, 25 °C, apparent, anoxic, added: L-Thr 10 mM",,kcat/Km,410 ± 150 M⁻¹ s⁻¹
